Measurements pooled from the literature.
Parts stem from different laboratories: compare values within a part only. Changes are numbered by the printed parent chain.

Sample 1
Target: PABPC1L2, full length, GST fusion (mouse, UniProt A0ABA7IW68)
Method: RNAcompete
Form: RNA
Medium: in vitro
Tested at: 20 nM
Notes: 7-mer, probes averaged, single round
Relative to: mean of 7-mers
Direction: higher = stronger binding
Construct (chain): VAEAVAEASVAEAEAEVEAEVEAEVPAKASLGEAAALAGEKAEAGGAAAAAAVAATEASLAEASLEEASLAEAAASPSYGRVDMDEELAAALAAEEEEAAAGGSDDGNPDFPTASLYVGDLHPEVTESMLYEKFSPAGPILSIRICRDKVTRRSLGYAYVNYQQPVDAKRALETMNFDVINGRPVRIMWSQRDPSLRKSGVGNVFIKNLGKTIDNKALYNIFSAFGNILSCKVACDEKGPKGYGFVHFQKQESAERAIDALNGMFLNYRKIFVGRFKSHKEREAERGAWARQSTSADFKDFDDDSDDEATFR
For `GUGGUCU`, the 7-mer Z-score was -0.449.
The 7-mer Z-score of `CAAACCA` is reported as 0.0895.
With `UUCGAUC` the 7-mer Z-score was -0.304.
With `AUACCCC` the 7-mer Z-score was -0.411.
`GCUCAAG` gave a 7-mer Z-score of -0.133.
The 7-mer Z-score of `AACCUUU` is reported as -0.15.
With `CAUUUUA` the 7-mer Z-score was -0.0301.
`UUGCUGU` gave a 7-mer Z-score of -0.364.

Sample 2
Target: Fragile X messenger ribonucleoprotein 1, C-terminal low-complexity region (Fmr1, Mus musculus, UniProt P35922)
Method: RNA Bind-n-Seq
Form: RNA
Medium: in vitro
Tested at: 200 nM
Notes: whole 134-nt RNA, ends assumed
Together with: 150 mM LiCl
Relative to: input library
Direction: higher = stronger binding
Each molecule: 7-deaza-guanosine replaces G
For `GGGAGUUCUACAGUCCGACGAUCCCUGUGCUACACAUCGUAUGUACCGAAUCGUGUGUGUGUGUGUGUGUGUGUGUGUGUGUGUAAAGUAUUAUGUUACGCCGUUCGGAUCUGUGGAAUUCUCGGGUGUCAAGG`, the log2 enrichment was -0.386.
For `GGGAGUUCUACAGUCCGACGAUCGUCCUGUGCUACACAUCGUAUGUACCGAAUCGGCCCCCCGGGCCCCCCGGCCCCCCGGGAAAGUAUUAUGUUACGCCGUUCGGAUCUGCAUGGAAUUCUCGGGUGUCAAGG`, the log2 enrichment was 0.204.
With `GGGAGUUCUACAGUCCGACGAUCUAACUUUAGAGGAGGAUCUGAUGGAUAUGGCAGUGGACGUGGAUUUGGGGAUGGCUAUAAUGGGUAUGGAGGAGGACCUGGAGGUGCCAAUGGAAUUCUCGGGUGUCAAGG` the log2 enrichment was -0.0621.
With `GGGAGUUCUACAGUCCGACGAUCCUCAAGUCCUGUGCUACACAUCGUAUGUACCGAAUCGGGGCCGGCCGGCCGGGGAAAGUAUUAUGUUACGCCGUUCGGAUCUGCACUUCCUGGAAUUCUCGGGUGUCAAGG` the log2 enrichment was 0.973.
The log2 enrichment of `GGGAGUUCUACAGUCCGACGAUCUUCUCUAAGAGGAACUCCGGCGCGUCAGAGUAACAGAAGCGAGAGCACAGACAGUCUUGGGGGCUUGUCUCCCUCUGAAGUCACAGCCAUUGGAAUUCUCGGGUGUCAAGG` is reported as 0.245.
`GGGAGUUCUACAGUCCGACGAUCGCAGGAAGUAAAAAUAAAUGGAAAUGCUUCGGAUAGUGGCAGGGGUGGGGGUUGCUAAGGAAAGGGUGGGAUGGGAGUGGGUAAAGAGUUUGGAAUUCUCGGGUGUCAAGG` gave a log2 enrichment of 1.68.
`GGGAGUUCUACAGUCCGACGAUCCACAGACAACACGCACCCACACAGACACAGAGGGAAGGGGUUGGGAUGGGGAGAGGGUGCACAGCAGGGCGGGGUAGGACCCCAGCCCCUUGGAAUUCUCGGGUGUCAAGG` has a log2 enrichment of 0.299.
`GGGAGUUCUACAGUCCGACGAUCUGUCUGGUGACAAGGAAGAGGAUGCUCCUCAUAGAGAAGAUUACUUUGAGCCCAUUUCUCCUGAUCGGAAUUCUGUUCCCCAGGAAGGGCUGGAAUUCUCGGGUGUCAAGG` gave a log2 enrichment of -2.17.

Sample 3
Target: TAR DNA-binding protein 43, full length, His tag (TARDBP, Homo sapiens, UniProt Q13148, residues 1-414)
Method: RNA Bind-n-Seq
Form: RNA
Medium: in vitro
Tested at: 20 nM
Notes: 6-mer, flanks averaged, single round
Together with: 150 mM KCl
Relative to: input library
Direction: higher = stronger binding
`ACCACG` — result for “6-mer enrichment (R)”: 0.748.
`UUGGUG`: “6-mer enrichment (R)” 1.29.
Under “6-mer enrichment (R)”, `GAAUAG` is recorded as 0.964.
Under “6-mer enrichment (R)”, `GCGUUA` is recorded as 0.804.
For `CGCUAC`, “6-mer enrichment (R)” read 0.642.
For `UAUCAC`, “6-mer enrichment (R)” read 0.565.
For `CCUAAG`, “6-mer enrichment (R)” read 0.696.
`UACAUC` — result for “6-mer enrichment (R)”: 0.552.

Single results of other studies
Starting sequence: PafA, mature enzyme, eGFP fusion (Elizabethkingia meningoseptica, UniProt Q9KJX5); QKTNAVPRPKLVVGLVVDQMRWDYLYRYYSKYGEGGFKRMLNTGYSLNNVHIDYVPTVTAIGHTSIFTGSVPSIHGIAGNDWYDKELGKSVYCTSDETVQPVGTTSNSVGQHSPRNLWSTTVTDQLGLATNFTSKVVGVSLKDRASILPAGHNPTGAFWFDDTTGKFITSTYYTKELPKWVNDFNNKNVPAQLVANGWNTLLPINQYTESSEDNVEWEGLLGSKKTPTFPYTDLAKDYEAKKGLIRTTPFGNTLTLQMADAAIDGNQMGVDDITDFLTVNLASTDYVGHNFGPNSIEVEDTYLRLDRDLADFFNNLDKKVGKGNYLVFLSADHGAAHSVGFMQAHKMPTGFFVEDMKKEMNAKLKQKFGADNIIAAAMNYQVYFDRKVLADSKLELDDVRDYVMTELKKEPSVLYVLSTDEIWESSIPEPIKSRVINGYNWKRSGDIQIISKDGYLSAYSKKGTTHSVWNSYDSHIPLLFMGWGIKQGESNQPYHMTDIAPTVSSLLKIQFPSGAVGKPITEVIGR
Under “oxyanion analog dissociation constant”, `M481G` is recorded as 2.5 µM (tungstate, free oxyanion; microfluidic competitive inhibition; in vitro, cell-free expressed; not given, derived from inhibition constants, unchanged parent 2230 nM; lower = stronger binding).

Some of these lines once more (sample 2):
The log2 enrichment of `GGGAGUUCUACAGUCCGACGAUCUUCUCUAAGAGGAACUCCGGCGCGUCAGAGUAACAGAAGCGAGAGCACAGACAGUCUUGGGGGCUUGUCUCCCUCUGAAGUCACAGCCAUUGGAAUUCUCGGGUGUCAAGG` is reported as 0.245.
`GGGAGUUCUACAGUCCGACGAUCGCAGGAAGUAAAAAUAAAUGGAAAUGCUUCGGAUAGUGGCAGGGGUGGGGGUUGCUAAGGAAAGGGUGGGAUGGGAGUGGGUAAAGAGUUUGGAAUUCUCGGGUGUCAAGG` gave a log2 enrichment of 1.68.
`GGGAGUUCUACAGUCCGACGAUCCACAGACAACACGCACCCACACAGACACAGAGGGAAGGGGUUGGGAUGGGGAGAGGGUGCACAGCAGGGCGGGGUAGGACCCCAGCCCCUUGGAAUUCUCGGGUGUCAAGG` has a log2 enrichment of 0.299.
